Published values collected from several papers.
Each numbered part is a random draw from the data of one study; scales do not carry over between parts. Substitutions count along the parent as printed.

Study 1
Target: UDP-N-acetylglucosamine--peptide N-acetylglucosaminyltransferase 110 kDa subunit (OGT, Homo sapiens, UniProt O15294)
Observed: binding
Technique: phage display NGS
Molecule type: peptide
Concentration: concentration not given
Reference: input library
Construct (O15294 1-1046): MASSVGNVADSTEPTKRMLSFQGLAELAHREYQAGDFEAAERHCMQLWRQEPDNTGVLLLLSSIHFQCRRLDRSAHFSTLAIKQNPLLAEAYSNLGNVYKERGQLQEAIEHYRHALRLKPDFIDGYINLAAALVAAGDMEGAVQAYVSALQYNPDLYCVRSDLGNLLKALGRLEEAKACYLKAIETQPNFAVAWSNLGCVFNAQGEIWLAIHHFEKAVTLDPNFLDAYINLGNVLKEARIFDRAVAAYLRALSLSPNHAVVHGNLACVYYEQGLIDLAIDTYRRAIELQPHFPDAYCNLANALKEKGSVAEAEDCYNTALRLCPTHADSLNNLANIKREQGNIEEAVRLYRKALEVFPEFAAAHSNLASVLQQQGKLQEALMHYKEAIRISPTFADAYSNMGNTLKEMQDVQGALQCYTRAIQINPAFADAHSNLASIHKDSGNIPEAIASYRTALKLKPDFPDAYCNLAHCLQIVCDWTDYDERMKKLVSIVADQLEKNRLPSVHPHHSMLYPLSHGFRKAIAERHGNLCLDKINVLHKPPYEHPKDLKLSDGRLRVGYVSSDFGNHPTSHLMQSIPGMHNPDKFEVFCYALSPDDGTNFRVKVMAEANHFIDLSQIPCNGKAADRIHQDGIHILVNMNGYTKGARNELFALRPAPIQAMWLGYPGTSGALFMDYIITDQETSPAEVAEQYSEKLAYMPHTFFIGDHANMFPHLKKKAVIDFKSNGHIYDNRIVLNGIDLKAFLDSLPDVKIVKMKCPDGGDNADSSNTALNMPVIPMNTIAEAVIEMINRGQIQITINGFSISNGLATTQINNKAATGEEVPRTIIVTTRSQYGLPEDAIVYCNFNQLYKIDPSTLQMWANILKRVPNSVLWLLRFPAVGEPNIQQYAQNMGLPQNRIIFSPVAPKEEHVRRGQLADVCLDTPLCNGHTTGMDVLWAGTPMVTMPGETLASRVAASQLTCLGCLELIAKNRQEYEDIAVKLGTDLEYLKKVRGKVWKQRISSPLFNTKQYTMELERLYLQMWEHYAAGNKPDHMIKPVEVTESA
Molecule | enrichment fold change
TKMNHHETTSEYLH | 3.1
HRGQGDEEHWHRHQA | 5.95
GKRDHTFHMHSSVH | 5.02
HRASMHHVFSPHLDH | 6.37
HNFHYYHAQPEWSPM | 3.82
HTQTHWIPHEIRHV | 9.75
HVDVRFPSAHHVRGT | 2.21
TYSDTNHHAHQWLLK | 3.47
SRTLTPMYQIHPFTS | 2.26
TSQLQPFYLIQYSHR | 3.69
TYRHSDHPVSSFAHV | 4.41
WVNVPHYQVFLHEHH | 6.09
DNKMHARNHQQHPH | 8.48
STFGRYLPSYIIQYR | 33.5
HDTMHHFYHKREWTQ | 2.87
QVMNEHRHHMRHQIY | 2.85
QHAHTHKHHHALTDI | 5.03
SIHTWSVGKHFRHHW | 6.85
QLAAYSPVYQIPILY | 6.74
FPVHHHYKWFQHEVD | 6.37

Study 2
Target: RING finger protein unkempt homolog, zinc fingers 1-6, GST-SBP tag (UNK, Homo sapiens, UniProt Q9C0B0, residues 30-357)
Chain of UniProt Q9C0B0 (30-357, looked up): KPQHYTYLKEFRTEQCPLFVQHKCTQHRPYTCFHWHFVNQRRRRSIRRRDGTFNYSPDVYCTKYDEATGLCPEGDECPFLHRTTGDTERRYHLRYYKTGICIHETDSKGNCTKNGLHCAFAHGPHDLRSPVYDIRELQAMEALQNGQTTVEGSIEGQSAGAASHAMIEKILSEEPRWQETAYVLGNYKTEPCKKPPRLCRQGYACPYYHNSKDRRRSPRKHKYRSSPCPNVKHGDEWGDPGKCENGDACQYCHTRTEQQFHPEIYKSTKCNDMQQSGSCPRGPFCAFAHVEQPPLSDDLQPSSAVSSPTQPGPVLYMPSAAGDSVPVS
Technique: RNA Bind-n-Seq
Molecule type: RNA
Sample: in vitro
Concentration: not given
Notes: RNA with constant flanks, human and mouse sites, ends assumed
Reference: input RNA pool
Reading: higher = stronger binding
Sequence | bound/input enrichment [ratio]
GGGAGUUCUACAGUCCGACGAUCCCAUCACAGAUUUCAGUAAUGCAGCAGUUGGAGGAUGGUGGCCCUGACCCACUUGUAUUUGUUUUAAAUGCAAAUUUGUUGUCAAUGGUUAAAAUUGUAAAUUAUGUGAACAGGAAGUGCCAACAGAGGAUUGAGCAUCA | 0.262
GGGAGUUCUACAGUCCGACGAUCAUCUAAACUUAGAUGGAGUUGGUCCAAUGAGGGAACAUCUGGGUUAUGCCUUUUUUAAAGUAGCUUUUAGGAACUGUCAGCAUGUUGUUGUUGAAGUGUGGAGCUGUAACUCUGCGUGGACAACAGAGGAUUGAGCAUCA | 2.64
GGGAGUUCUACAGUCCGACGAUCGAUUUUGAUUAUACAACCAUGCAUAGGAUUAAACUGAAUGAUCGAAUGACAUUUCCCGAGGAACUAGAUAUGAGUACUUUUAUUGAUGUUGAAGAUGAGAAAUCUCCUCAGACUGAAAGUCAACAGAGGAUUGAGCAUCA | 2.71
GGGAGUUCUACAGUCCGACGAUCGAAGAAAGCAAUAAAUUCUAUAAGGACAAUAUUAAGGCUGGUCAGCAGGGGUUGUCUGUUGCCUUUGACUUGGCAACACAUCGUGGUUAUGAUUCAGACAACCCCAGAGUUCGUGGAGAUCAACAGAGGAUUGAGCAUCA | 0.2
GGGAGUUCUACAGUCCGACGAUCGACCUUGAGCAGAAUGAAACAUUAGAAAGCAUCAUGAGUACUGCUGAGAGUGAAGAAGAAUUGAAAAGAUAUUUUUAUUACUUGGAGGGAUCCAAAGAUGCUCUUCUUUGCGGUUUCAGCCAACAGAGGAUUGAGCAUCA | 0.588
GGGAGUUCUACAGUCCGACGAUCCAGCCUGGGGACACAGCCAAGGCUGUGGUGGCACAAGCUGUCCGUCAUCUCCCGCAGUCUGUUAGGAUUUACAUCAGAGCAGCAGAGCUAGAAACAGACAUUCGAGCAAAGAAGCGUGUUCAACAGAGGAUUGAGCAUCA | 0.268
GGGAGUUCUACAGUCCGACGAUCCUCAAAGUGGAAGAGGUGGUCACUAAAUGCAAAAUAAAGAUGGAAGAUUUUGCUUUUAUUGCUAAUCCUUCUUCUACAGAGAUAUCUAGUAUUACUGGAAACAUUGAAUUGAAUCAACAGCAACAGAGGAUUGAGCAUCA | 0.227
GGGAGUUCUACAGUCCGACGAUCGGUUAUGGUAAAAGAGGUCAAAUGAAACCCUCGAUUGAAUCCUAUUCUGAAGAUGAUGAAAGUAAGUUUUGCAGUUAUGGUCAAUACCCAGCCGACCUAGCCCAUAAAAUACAUAGUGCACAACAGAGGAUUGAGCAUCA | 1.26

Study 3
Target: inorganic phosphate, free oxyanion
Technique: microfluidic competitive inhibition
Sample: in vitro, cell-free expressed
Concentration: not given
Notes: derived from inhibition constants, unchanged parent 615000 nM
Reading: lower = stronger binding
Starting sequence: PafA, mature enzyme, eGFP fusion (Elizabethkingia meningoseptica, UniProt Q9KJX5); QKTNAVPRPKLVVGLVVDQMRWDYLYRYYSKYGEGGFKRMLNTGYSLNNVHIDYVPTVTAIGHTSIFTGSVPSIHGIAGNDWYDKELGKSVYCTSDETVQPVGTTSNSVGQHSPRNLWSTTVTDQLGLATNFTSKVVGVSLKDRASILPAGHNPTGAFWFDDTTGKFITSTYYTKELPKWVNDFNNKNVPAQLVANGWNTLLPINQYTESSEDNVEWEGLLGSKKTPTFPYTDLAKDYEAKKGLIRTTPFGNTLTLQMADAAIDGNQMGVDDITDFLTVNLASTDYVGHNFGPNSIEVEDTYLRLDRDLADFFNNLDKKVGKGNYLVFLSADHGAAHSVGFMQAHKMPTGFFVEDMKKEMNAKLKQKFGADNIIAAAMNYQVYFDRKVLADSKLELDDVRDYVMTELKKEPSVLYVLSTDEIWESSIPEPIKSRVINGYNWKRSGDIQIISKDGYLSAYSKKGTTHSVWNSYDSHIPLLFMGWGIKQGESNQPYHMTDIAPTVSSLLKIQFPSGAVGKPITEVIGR
Change | phosphate dissociation constant
Q111G | 607 µM
G265A | 631 µM
G197V | 628 µM
T3V | 635 µM
Y238G | 499 µM
P7V | 625 µM
L87V | 656 µM
L305G | 668 µM
P501V | 604 µM
N324G | 506 µM
R21G | 550 µM
I77V | 574 µM
D306G | 607 µM
L47G | 470 µM
N361G | 636 µM
H112G | 659 µM
K358V | 700 µM
A5G | 577 µM

Study 4
Target: Protein C-ets-1 (ETS1, Homo sapiens, UniProt P14921, residues 1-441, full length assumed)
Technique: protein-binding microarray
Molecule type: double-stranded DNA, one strand shown
Sample: in vitro
Concentration: not given
Notes: k-mer, scored over probes, only values ≥0.25
Reading: higher = stronger binding
Target sequence (chain): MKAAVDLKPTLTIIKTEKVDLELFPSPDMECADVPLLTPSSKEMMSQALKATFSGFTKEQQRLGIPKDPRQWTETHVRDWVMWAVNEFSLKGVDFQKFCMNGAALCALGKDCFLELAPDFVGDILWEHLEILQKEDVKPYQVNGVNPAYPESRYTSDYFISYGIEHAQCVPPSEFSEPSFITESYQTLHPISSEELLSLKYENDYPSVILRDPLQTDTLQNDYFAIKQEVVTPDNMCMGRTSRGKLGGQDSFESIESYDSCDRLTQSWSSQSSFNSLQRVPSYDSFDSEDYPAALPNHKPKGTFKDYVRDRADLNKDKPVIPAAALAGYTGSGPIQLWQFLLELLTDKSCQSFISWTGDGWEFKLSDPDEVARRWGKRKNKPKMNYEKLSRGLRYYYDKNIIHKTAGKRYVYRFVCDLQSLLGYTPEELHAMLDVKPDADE
Sequence | E-score
CAGGAACC | 0.326
CGGAAGTC | 0.492
CGGATACC | 0.417
GGACGTAA | 0.267
TCGGAAGA | 0.267
ACTTCCCC | 0.43
GATATCCC | 0.297
ATCCTGCA | 0.28
